Published values collected from several papers.
Each numbered part is a random draw from the data of one study; scales do not carry over between parts.

Block 1 — technique: universal PBM; form: double-stranded DNA, one strand shown; matrix: in vitro; tested at: 600 nM; direction: higher = stronger binding; measurement: E-score
Target: Sal-like protein 4, full length isoform A (SALL4, Homo sapiens, UniProt Q9UJQ4, residues 1-1053)
Chain of UniProt Q9UJQ4 (whole entry, looked up): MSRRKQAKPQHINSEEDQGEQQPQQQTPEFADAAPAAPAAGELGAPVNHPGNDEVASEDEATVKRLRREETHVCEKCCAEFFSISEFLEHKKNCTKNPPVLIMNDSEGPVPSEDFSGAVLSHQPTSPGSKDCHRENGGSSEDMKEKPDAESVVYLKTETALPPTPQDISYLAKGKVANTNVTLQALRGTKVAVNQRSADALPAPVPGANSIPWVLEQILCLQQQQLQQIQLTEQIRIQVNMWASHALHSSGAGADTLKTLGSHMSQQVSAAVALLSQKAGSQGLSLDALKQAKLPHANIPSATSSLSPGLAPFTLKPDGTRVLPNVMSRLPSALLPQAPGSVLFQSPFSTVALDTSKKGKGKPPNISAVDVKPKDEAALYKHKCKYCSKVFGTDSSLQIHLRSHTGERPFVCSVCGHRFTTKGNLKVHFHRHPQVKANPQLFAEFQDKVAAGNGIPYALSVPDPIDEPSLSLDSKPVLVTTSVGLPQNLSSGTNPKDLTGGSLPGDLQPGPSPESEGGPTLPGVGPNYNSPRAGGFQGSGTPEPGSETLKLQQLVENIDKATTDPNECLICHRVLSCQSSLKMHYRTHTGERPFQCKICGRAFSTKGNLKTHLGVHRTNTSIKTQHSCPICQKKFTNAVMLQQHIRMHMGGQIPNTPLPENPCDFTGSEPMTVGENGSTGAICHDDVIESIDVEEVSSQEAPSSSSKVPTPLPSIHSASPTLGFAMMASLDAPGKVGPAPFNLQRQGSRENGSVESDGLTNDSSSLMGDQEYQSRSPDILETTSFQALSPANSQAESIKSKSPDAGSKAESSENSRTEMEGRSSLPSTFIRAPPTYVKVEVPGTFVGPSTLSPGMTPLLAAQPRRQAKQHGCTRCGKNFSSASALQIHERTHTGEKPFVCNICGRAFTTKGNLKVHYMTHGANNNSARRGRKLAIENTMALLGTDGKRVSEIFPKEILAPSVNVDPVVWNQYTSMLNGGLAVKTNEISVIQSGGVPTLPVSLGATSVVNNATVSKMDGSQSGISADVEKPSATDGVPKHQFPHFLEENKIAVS
Notes: 8-mer, flanks averaged, mean of replicates
ACGGCTTG: -0.161
ATTGTGTA: 0.237
AGAAACCC: -0.0317
AAGTGAGA: 0.017
GCCAACAA: -0.0184
ATGGCTGG: -0.23
AAGAGCGG: -0.157
TACAGGTA: 0.135
AAGGCGCC: -0.31
ACCTGTGG: -0.203
ACTACCAA: 0.156
AACAGGTG: -0.0816
AGAAGTTG: -0.0391
CGAGCTTC: -0.069
CTCTTTCA: 0.133
AGTACAAG: 0.0193
CGCACGTC: -0.188
GCCGTAGC: -0.24
ACGGCCTC: -0.272
TACTTCTA: 0.131
ACCCTACG: -0.122
TAGCATAA: 0.261
ACACCCGA: -0.0848
CCCCATTA: -0.0249

Block 2 — technique: EMSA with sequencing; form: double-stranded DNA, one strand shown; matrix: in vitro; tested at: 10 and 20 nM; reference: negative control set to 0; direction: higher = stronger binding; measurement: normalised bound fraction
Target: Hepatocyte nuclear factor 3-alpha (Foxa1, Mus musculus, UniProt P35582, residues 1-468, full length assumed)
Notes: whole designed probe, mean of two concentrations, ends assumed
All sequences stand within: GTGAGCGGTGCCCATTGATGGGGAAC … TTTCACTGGGATCGTGGGGAC
Residues (chain): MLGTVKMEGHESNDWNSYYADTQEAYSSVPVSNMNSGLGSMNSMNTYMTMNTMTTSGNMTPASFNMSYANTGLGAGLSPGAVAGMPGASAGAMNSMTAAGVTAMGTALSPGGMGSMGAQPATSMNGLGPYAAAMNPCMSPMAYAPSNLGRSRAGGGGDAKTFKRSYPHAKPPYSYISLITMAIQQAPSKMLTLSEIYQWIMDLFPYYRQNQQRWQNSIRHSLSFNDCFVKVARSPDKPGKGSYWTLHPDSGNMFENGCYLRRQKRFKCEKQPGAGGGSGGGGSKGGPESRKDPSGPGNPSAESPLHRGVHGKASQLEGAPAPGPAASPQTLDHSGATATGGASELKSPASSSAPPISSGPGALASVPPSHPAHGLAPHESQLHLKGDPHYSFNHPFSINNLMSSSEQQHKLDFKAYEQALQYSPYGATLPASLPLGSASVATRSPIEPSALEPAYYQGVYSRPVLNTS
ATCTTCCCCCTCTTCCTTGCCCCACCAGCTCACCTTCCCGGGTTATTTGCAGATAGGAAAATAAATAAAGCCGGCATTCGTTAACCCTCTTCTGGCGCAAACTGCTGTTTGCTCTGGATGAATCATGGTCCTTTGGCGACGCCAGGCTCCGGGAGAGCAAAGCGCATGAACCAGCGCTTTCGGCGGGGTGGCC: 0.333 ratio
GATGTTTTTGTTGTTGTTAATCTGGAGCTAAGGATGGTTGCATTGAGATTGCATTCTAGATAACAAAGCTGGCAGTCGCAGTGAAGGAGGGTCAAGATTGCACAGCAGTGATTCAGAGCTCTGCCAGGACAGCTGCCAGTGCAGTTTATCTCCCAGTCCGATCAGGCCTTGGCGCAGGGAGGGAAGGTGGCCC: -0.074 ratio
AATTTCCTGTGCTCTCTTTCCTGCCCTCATTCAAGTGGTCACCTTCCTTATTTCCCTCAGAAATACTCACAGAAGCTGTCAGAAGGGTTATGAGTCAACACTGAGCTCCTTGAACCCACATGTCTATCAGCCAACCTTGGTGTGGCTGGACCTCACATTCTGTTTGCCCTTCTGTGATGGATGAACTTGTGTT: 0.153 ratio
GAACCTCTCCTTTTTCTAAAGACTTTTATAGGCATTTTTTTTTCTTCTTCTCAGCATGTGAACCAATGTGTAACTCAAATAGATGTTACTTTGCAGATTACTTAGATTGTTTTAAAAGGCTAGCTGTGTGGAGGAATGAGGAAGGAAGGGAGGCGGGAGTGGCTGGAGTTTTTTTTTTTCTCAGATGACCTAA: -0.0278 ratio
TGCCACGGACGTGCAGCCGTTAAAATATTAATGTCTGGCATGTGGCAAACATTTAAAATATGCTGAGACTTGGGAGCTGTTGAGCTGGGCCTTGTTGACACACCGCCTCACCTGGGTGTTGTTTGCTATGTAAATGCCAAGGATTCCTCCCTGAAGCTGGAACCTGCACTCCTCTTCTCACCCCTCATTTCCT: 0.275 ratio
AGAAATTAGGATTTGAAGATGGAGGGGAAAGTGGGTGGGGAAAGAGTAGAGTAGATAGGGCTAAATAAATAAAACTACCATGTATATGAACAGTGTAAACAAGGACTTAAGAACTACTAAGTCCTTGTCTTGTATTAGTAAATACTAAATTATAAATAAAACACACTATAAGAATGTTGTTTTATATATCAAT: 0.478 ratio
ATCTTCCCCCTCTTCCTTGCCCCACCAGCTCACCTTCCCGGGTATCTGCAAATAAGGAAATTAATATAAGCCGGCATTCGTTAACCCTCTTCTGGCGCAAACTGCCAGAGCAAACAGATGAATCATGGTCCTTTGGCGACGCCAGGCTCCGGGAGAGCAAAGCACCGTGTCAGGGCCATGATCCGGGGTGGCC: 0.21 ratio
CTTATCTGGGCCCATGAGTAAGCCTGCCAGCCCCCTGCTGCCCTGACTGGCGTGAGCAACAGCAATAAATAAATAAGAACAGAGACAAGAAGCTTATGTACTTTGGAGCTCCTGGTTCTATTTGATGTCATTGGACACCAGTTTGCTTTTCTTTAAAGCCTGTTTCTTTTGAACTGGGCTGCCGCAGTCTATA: 0.284 ratio

Block 3 — technique: protein binding microarray; form: double-stranded DNA, one strand shown; matrix: in vitro; tested at: not given; reference: not given; direction: higher = stronger binding; measurement: E-score
Target: Histone acetyltransferase KAT6A, winged helix 1, GST fusion (KAT6A, Homo sapiens, UniProt Q92794, residues 1-85)
Notes: 8-mer, flanks averaged, mean of 2 arrays, mostly near background
Residues (chain): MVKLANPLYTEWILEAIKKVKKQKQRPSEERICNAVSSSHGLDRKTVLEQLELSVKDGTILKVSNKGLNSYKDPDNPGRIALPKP
GATAGGGC: -0.173
CCCTGACG: -0.0246
GGTACAAC: -0.129
AAAAAACA: -0.194
CCAAGGAC: -0.057
CGTCATTC: 0.0631
AGAGACAA: -0.258
AGACTATG: -0.112
ACGGTTTG: 0.0732
TTTGAAAA: -0.117
CGATAGAG: -0.175
TAATCGCA: 0.00549
CTAGAGTA: -0.0532
ACAATCCC: 0.0452
GGAGCCCC: 0.182
ATTTTCGC: 0.0233
ACAGAGCA: -0.22

Block 4 — technique: RNA Bind-n-Seq; form: RNA; matrix: in vitro; tested at: 365 nM; reference: no-protein control; direction: higher = stronger binding; measurement: RBNS enrichment (R)
Target: RNA binding protein fox-1 homolog 2, RRM domain, GST-SBP tag (RBFOX2, Homo sapiens, UniProt O43251-10, residues 100-194)
Notes: natural RNA segment, single round, ends assumed
All sequences stand within: GGGAGUUCUACAGUCCGACGAUC … UGGAAUUCUCGGGUGCCAA
Target sequence (chain): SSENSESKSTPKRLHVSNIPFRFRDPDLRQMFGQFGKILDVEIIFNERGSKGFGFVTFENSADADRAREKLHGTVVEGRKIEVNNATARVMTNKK
GUUGCUUUGUUCAUAAUGUGGUUACAGUCAUAUUACACUGACCCUGAGGGUAUUAUGUAACCCUUCAGAAAACCACUUUGCCUCAUUGUGUUUCAGGAUUAACUUCUACA: 0.299
UAUGCUUUGCCUUAUUUCCACAUUUAAACUACCUGUUAAUAUAAGGGAUUUGUAGUAUCAGCUUGUUGAGCAAUGACUUUGAAUCUAGUUUUCAGUGAUCAGAAGCAGCA: 0.387
GGUGUAUUUGAAUGACUAUUUUAUUCGUAUUUAAAAUAAUACUAUUAAGUAAGCAUUUUGCACAUGGGCACCCCAGUGUCCCGCUGGCCCAGCAGGAGUCACUGUUGGCC: 0.678
ACAAAUUUAAUAUAAAUCAAAGACCAGCAUUUUAACUACAAAUGGUAGUUGUUUAACCAUCAUAUUUCUCUUUAAAGUACACAAAAUUCUUGGAUCUGGAAAGAUAACUC: 0.728
CGGCUUUGGUACUCUCUACCUCUUACCGAGCACCGCCCUUUUGACCUUGUAUAGCCAGUUUGACCAUCUGCCUUAUAGACAAACAUUGCUGUUCUUCUAUGUCGUCCUCU: 0.503
CCAGUUCCCCUCUCUGCCCCCACACUCGUCUUAGUUGCUUCACACUGGUCACUGGCCCUGCACACUGGGCUAUUGCUUUAUCCCUAUCCUGAGAGCAGCCCCUCCCCACC: 0.851
CAUCCUCACACCUGUUCCCUCCAGAGGGCCCGGCUCCCUGCAUCAGGCAGCAGCCGCCCAUCUCGCCCCAACUGUUGGCUCCAGGCAGGGCUGGGCAGCAGGGAGCCUGG: 0.357
GCUUCCCAGAGAAGCUCAUUUAGUUAGAAAAUAAGGCAAGUUUUGAAGCCUGCUAAAUGAAGAGACUUAAGAAAGCUUAAGGUACGCUUGCUUGUCUUUAAAUCUUCAAU: 0.786
UUAUACGUGUAUGUGUGCCCUCUCCUUACAUACACACCCUGGAAUAGAGUUCUCACACCGUUCAAUUUUGCACAUAUGUCCUCAUGGAUCCCCAGUUUUGUCCCUCCACU: 2.01
UUUUCCUCAGGCUCCAACAACUGUGCUUAUACCAAGCAGAUCCUCAUCCUCCAUAUAAUCAUCUUUGUUAUUCGUGGGGGUUUAAUUACAUUACAAGUGGCCAAAACCCC: 0.268
UGCAGAUGUGCAUUUUCCUUUUGGUAGAAAUGGUCCACAGCACUAACUGGUAAGGCUUAUUGUACAGUAUAUUGUCAGUAUUCUUCUGGUUCAGCAUACCUUAUAGUUCG: 0.631
ACCUCAGGAUUCGAAGUGUGCAACAGACGGAGUGCGCUUGCUGUUCAGGGCGGCCCCGUGCAGGAGCACCAGCUCACCCUCAGGCAUCUCGGACUGGAGGGCCAGCAGAA: 0.622

Excerpt of the above (block 1):
TACTTCTA: 0.131
ATTGTGTA: 0.237
CGCACGTC: -0.188
